# Results from different studies.
# Each line is one published result; not all experiments were run side by side. “And” joins repeats or separate records; there may be more than shown. ± gives the spread as reported.
# MT-CYB/UQCRFS1: MT-CYB/UQCRFS1 (Homo sapiens, UniProt P00156+P47985)
# UniProt P00156, sequence (whole entry, looked up): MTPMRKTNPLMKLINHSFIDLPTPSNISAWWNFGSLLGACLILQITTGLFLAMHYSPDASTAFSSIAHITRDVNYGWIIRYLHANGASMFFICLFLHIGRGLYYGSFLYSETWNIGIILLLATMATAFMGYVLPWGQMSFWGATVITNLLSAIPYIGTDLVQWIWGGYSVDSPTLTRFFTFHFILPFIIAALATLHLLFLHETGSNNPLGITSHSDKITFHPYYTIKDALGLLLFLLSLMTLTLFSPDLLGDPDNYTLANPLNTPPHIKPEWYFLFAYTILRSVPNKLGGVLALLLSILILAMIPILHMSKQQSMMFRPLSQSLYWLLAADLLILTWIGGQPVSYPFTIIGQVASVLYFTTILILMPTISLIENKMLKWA
# UniProt P47985, sequence (whole entry, looked up): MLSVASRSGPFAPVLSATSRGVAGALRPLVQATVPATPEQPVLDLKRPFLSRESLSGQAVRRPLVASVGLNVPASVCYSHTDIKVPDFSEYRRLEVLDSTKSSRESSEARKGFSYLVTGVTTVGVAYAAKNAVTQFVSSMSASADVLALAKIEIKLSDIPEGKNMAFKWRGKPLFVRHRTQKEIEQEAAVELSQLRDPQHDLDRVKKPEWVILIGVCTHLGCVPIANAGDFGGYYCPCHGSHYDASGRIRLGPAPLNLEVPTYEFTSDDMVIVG
# Dehaloperoxidase B ferric: Dehaloperoxidase B, ferric (Amphitrite ornata, UniProt Q9NAV7)
# KEAP1 Kelch domain: Kelch-like ECH-associated protein 1, Kelch domain (KEAP1, Homo sapiens, UniProt Q14145)
# UniProt Q64663, sequence (whole entry, unmodified, looked up): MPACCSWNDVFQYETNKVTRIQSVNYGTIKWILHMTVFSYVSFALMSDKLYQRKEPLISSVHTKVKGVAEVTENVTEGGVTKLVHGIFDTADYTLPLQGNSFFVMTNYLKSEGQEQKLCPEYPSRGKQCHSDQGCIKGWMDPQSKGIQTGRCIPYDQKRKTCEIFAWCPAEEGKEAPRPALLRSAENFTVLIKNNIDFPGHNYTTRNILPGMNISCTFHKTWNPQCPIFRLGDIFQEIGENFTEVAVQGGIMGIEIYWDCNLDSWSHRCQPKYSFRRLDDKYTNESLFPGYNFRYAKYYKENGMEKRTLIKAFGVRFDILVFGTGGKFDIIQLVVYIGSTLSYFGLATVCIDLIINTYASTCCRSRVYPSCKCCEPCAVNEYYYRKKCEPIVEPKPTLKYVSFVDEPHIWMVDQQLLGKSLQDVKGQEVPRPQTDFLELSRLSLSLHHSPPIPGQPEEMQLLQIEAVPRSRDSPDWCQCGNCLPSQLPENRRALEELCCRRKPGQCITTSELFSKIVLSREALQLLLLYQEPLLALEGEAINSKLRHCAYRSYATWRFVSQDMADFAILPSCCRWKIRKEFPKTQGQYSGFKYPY
# UniProt P18669, sequence (whole entry, looked up): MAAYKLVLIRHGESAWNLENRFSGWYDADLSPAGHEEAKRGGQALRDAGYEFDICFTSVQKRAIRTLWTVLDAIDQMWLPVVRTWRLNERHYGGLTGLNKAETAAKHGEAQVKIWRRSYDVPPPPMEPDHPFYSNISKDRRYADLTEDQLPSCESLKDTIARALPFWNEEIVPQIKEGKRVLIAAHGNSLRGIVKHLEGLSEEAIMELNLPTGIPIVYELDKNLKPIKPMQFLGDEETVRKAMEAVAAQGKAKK
# UniProt P51575, sequence (whole entry, unmodified, looked up): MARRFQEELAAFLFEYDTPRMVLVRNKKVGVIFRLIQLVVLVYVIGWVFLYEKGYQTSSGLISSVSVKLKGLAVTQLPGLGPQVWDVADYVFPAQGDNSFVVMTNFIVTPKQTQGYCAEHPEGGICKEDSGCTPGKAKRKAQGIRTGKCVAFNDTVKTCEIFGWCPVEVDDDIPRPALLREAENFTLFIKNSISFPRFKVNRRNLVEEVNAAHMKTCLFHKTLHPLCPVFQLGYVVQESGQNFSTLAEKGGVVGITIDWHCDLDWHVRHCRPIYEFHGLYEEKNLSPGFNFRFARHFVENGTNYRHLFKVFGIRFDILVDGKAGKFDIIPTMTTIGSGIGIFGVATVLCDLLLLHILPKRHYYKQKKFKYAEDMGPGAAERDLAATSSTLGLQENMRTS
# UniProt Q14145, sequence (whole entry, looked up): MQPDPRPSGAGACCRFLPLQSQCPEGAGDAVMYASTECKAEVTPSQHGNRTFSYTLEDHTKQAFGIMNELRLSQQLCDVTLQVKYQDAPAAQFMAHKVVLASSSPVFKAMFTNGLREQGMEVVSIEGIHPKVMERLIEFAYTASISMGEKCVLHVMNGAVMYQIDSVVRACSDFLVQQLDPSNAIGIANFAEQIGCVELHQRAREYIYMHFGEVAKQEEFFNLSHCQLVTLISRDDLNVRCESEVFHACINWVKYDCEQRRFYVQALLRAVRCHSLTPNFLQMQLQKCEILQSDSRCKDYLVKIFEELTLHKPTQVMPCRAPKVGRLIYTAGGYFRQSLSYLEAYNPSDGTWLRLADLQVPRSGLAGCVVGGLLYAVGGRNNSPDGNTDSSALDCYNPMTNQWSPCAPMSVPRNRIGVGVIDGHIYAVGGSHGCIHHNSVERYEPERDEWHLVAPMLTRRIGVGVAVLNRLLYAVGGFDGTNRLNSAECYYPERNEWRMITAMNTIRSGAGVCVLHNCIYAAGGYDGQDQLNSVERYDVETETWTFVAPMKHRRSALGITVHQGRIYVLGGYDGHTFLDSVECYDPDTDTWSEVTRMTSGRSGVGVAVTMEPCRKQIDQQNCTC
# UniProt Q9UH17, sequence (whole entry, looked up): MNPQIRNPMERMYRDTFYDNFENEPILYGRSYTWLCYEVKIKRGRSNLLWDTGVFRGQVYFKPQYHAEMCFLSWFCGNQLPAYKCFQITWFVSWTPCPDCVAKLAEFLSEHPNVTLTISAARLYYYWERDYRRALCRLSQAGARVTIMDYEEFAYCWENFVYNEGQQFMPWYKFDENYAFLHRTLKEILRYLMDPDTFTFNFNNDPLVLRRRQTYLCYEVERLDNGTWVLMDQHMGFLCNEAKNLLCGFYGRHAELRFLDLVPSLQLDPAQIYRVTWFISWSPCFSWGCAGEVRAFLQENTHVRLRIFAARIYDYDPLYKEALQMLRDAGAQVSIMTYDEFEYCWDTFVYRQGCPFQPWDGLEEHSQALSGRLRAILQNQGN
# UniProt Q16774, sequence (whole entry, unmodified, looked up): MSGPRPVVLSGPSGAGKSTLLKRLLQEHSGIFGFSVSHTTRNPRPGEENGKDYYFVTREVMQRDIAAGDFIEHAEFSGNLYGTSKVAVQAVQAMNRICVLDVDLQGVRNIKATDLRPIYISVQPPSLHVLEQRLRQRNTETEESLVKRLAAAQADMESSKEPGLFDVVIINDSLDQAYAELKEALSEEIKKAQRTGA
# UniProt P11388, sequence (whole entry, looked up): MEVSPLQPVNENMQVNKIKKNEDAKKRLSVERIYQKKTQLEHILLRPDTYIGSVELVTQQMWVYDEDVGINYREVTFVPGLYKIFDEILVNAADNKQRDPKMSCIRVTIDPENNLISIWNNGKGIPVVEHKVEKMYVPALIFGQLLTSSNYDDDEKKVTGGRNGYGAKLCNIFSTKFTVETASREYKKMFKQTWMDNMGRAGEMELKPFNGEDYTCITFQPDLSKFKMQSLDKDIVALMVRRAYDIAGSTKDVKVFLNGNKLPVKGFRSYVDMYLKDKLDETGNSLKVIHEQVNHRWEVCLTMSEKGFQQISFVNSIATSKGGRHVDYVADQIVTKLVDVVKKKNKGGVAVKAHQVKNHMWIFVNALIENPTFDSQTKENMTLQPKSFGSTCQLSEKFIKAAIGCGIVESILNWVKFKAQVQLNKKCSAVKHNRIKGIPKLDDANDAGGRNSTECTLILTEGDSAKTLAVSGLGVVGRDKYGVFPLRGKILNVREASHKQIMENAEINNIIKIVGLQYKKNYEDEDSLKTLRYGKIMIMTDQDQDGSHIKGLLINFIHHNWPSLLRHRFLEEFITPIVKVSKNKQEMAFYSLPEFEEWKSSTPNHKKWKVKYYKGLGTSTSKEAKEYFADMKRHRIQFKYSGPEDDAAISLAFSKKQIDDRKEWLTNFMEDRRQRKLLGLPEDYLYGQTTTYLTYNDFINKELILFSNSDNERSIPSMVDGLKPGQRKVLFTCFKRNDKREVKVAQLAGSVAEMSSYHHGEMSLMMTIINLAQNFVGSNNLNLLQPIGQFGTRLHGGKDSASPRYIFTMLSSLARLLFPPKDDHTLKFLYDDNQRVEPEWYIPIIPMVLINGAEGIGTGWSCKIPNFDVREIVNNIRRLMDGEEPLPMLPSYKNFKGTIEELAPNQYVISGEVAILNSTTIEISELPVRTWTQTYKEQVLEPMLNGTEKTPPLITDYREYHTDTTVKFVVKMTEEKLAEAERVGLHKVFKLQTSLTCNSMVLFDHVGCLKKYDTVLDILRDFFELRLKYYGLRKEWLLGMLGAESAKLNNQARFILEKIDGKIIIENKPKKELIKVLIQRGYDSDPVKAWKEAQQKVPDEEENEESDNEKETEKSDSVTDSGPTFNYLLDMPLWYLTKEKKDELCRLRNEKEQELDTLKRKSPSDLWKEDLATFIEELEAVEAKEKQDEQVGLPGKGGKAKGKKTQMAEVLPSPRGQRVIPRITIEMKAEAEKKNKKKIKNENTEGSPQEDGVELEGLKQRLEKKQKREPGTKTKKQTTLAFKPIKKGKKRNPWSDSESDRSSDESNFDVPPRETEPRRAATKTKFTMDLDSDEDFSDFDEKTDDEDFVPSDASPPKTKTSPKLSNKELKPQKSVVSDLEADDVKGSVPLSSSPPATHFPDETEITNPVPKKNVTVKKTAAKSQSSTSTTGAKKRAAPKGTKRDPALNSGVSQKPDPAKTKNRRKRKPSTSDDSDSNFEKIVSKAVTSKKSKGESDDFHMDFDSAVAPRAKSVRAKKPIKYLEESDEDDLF
# UniProt P02749, sequence (whole entry, unmodified, looked up): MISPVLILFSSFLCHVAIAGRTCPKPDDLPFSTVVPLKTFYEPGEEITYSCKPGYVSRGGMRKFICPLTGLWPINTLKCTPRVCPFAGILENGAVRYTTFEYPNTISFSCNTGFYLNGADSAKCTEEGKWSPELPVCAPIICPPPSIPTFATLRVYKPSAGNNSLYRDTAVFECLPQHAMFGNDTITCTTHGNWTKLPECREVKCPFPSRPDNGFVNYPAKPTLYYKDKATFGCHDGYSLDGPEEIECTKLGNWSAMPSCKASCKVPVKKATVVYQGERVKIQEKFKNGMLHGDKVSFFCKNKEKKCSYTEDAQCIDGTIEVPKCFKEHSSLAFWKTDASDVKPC
SMILES,target,assay,system,conditions,scale,endpoint,result
NC(=O)NOCCCCCCCCCC[P+](c1ccccc1)(c1ccccc1)c1ccccc1.O=C([O-])C(F)(F)F,MT-CYB/UQCRFS1,"complex III-dependent respiration, Seahorse XF96",HCT-116,"5 µM, 24 h",baseline: control,oxygen consumption rate,100 ± 5.65%
NC(Cc1cc(I)c(Oc2cc(I)c(O)c(I)c2)c(I)c1)C(=O)O (centres unmarked),"SLC16A2 (Homo sapiens, UniProt P36021)","transport, substrate",transfected COS-1 cells,,baseline: empty vector cells,uptake,increased
NC(=O)NOCCCCCCCCCCCCCC[P+](c1ccccc1)(c1ccccc1)c1ccccc1.O=C([O-])C(F)(F)F,MT-CYB/UQCRFS1,"complex III-dependent respiration, Seahorse XF96",HCT-116,"10 µM, 24 h",baseline: control,oxygen consumption rate,13.9 ± 5.27%
O=c1nc(SCc2cc(F)cc(C(F)(F)F)c2)nc(SCc2ccc3nc(Cl)ccc3c2)[nH]1,"TOP2A (Homo sapiens, UniProt P11388)",ATPase activity,,"15.6 µM, with: ATP 2 mM",,ATP hydrolysis rate,2.31 µM/min and 1.67 µM/min
O=C1Nc2ccc(Br)cc2C1=O,Dehaloperoxidase B ferric,"product, HPLC",,"5 min, pH 7, 25 °C, enzyme 10 µM, with: 5-bromoindole and H2O2 500 µM each",,product formed,6.8 M
Nc1ncnc2c1ncn2[C@@H]1O[C@H](COP(=O)(O)CP(=O)(O)OP(=O)(O)O)[C@@H](O)[C@H]1O,"P2X purinoceptor 1 (P2RX1, Homo sapiens, UniProt P51575, K140A)",calcium influx,,1 µM,baseline: ionomycin response,calcium influx,75.6% and 70.6% and 91.8% and 94%
O=C(COP(=O)(O)O)[C@@H](O)[C@H](O)[C@H](O)COP(=O)(O)O,"Phosphoglycerate mutase 1 (Homo sapiens, UniProt P18669)",activator,,"0.3125 mM, wild-type enzyme, unit not given",relative to no compound,enzyme activity,2.33 and 2.07 and 2.13
Nc1nc2c(ncn2[C@@H]2O[C@H](COP(=O)(O)O)[C@@H](O)[C@H]2O)c(=O)[nH]1,"GUK1 (Homo sapiens, UniProt Q16774, T83A)","binding, ITC",,,,ΔH,-11.9 ± 0.1 kcal/mol
CO[C@H]1O[C@H](COS(=O)(=O)O)[C@@H](O[C@@H]2O[C@@H](C(=O)O)[C@@H](O[C@H]3O[C@H](COS(=O)(=O)O)[C@@H](O[C@@H]4O[C@H](C(=O)O)[C@@H](O[C@H]5O[C@H](COS(=O)(=O)O)[C@@H](O)[C@H](O)[C@H]5NS(=O)(=O)O)[C@H](O)[C@H]4O)[C@H](OS(=O)(=O)O)[C@H]3NS(=O)(=O)O)[C@H](O)[C@H]2OS(=O)(=O)O)[C@H](O)[C@H]1NS(=O)(=O)O,"Beta-2-glycoprotein 1, domain V (APOH, Homo sapiens, UniProt P02749, V266L)",isothermal titration calorimetry,,with: 150 mM NaCl,baseline: total free energy,salt-independent binding energy share,63%
Nc1nc2c(ncn2[C@@H]2O[C@@H]3COP(=O)(O)O[C@H]3[C@H]2O)c(=O)[nH]1,"Cone cGMP-gated channel (Morone saxatilis, UniProt Q3I0N1+Q3I0N2)","channel current, agonist, suction electrode",cone outer segments,with: 0.5 µM Ca2+,,Hill coefficient,2.07 ± 0.32
O=C(O)/C=C/c1ccc(O)c(O)c1,"KEAP1 (Homo sapiens, UniProt Q14145)",native mass spectrometry,,"1:5 protein:compound ratio, 30 min",,dimer abundance,increased
NC(=O)NOCCCCCCCCCCCCCCCCCCCC[P+](c1ccccc1)(c1ccccc1)c1ccccc1.O=C([O-])C(F)(F)F,MT-CYB/UQCRFS1,"complex III-dependent respiration, Seahorse XF96",HCT-116,"10 µM, 24 h",baseline: control,oxygen consumption rate,26.6%
O=C(c1cc(-c2ccc3c(c2)OCCO3)nc2ccccc12)N1CCC(Cc2ccccc2)CC1,"Kelch-like ECH-associated protein 1, with NRF2 (Mus musculus, UniProt Q9Z2X8)",binding,,"concentration not given, biochemical",,activity class,inactive
Cc1noc(NS(=O)(=O)c2ccc(N=NN(C)O)cc2)c1C,"α-glucosidase, rat intestine",enzyme activity,,"120 µg/mL, with: 4-nitrophenyl α-D-glucopyranoside",,inhibition,22.5 ± 0.04%
C[C@H](CCC(C)(C)O)[C@H]1CC[C@H]2[C@@H]3CC=C4C[C@@](C)(O)CC[C@]4(C)[C@H]3CC[C@]12C,"Glutamate NMDA receptor; GRIN1/GRIN2B (GRIN1/GRIN2B, Homo sapiens, UniProt Q05586+Q13224, D552A)","positive allosteric modulator, two-electrode voltage clamp",Xenopus oocytes expressing GluN1-D552A,"10 µM, 0.02% cremophor, with: 100 µM glutamate and glycine",baseline: without compound,current response,167 ± 7.8%
CC[C@H](C)[C@H](NC(=O)[C@@H]1CCCN1C(=O)[C@H](CC(C)C)NC(=O)[C@H](Cc1ccccc1)NC(=O)[C@H](CCC(=O)O)NC(=O)CNC(=O)[C@@H](NC(=O)[C@H](CCC(=O)O)NC(=O)[C@@H]1CCCN1C(=O)[C@H](CC(=O)O)NC(=O)[C@H](CC(C)C)NC(=O)[C@H](CCC(N)=O)NC(=O)[C@H](CC(C)C)NC(=O)[C@H](CCC(N)=O)NC(=O)[C@H](C)NC(=O)[C@H](Cc1ccccc1)NC(C)=O)[C@@H](C)O)C(=O)N[C@@H](CCC(N)=O)C(=O)N1CCC[C@H]1C(=O)N[C@@H](C)C(=O)N[C@@H](CCC(N)=O)C(N)=O,KEAP1 Kelch domain,"binding, ITC",,"pH 7, 298.15 K",,ΔH,-16.65 ± 0.064 kcal/mol
Nc1ncnc2c1ncn2[C@@H]1O[C@H](COP(=O)(O)OP(=O)(O)OP(=O)(O)O)[C@@H](O)[C@H]1O,"P2X purinoceptor 7 (P2rx7, Rattus norvegicus, UniProt Q64663, R125A)","ion current, agonist, two-electrode voltage clamp",Xenopus laevis oocytes,18.52 µM,baseline: highest concentration response,normalized current,0.223 and 0.323 and 0.208
CC[C@H](C)[C@H](NC(=O)[C@@H]1CCCN1C(=O)[C@H](CC(C)C)NC(=O)[C@H](Cc1ccccc1)NC(=O)[C@H](CCC(=O)O)NC(=O)CNC(=O)[C@@H](NC(=O)[C@H](CCC(=O)O)NC(=O)[C@H](CCC(=O)O)NC(=O)[C@H](CC(=O)O)NC(=O)[C@H](CC(C)C)NC(=O)[C@H](CCC(N)=O)NC(=O)[C@H](CC(C)C)NC(=O)[C@H](CCC(N)=O)NC(=O)[C@H](C)NC(=O)[C@H](Cc1ccccc1)NC(C)=O)[C@@H](C)O)C(=O)N[C@@H](CCC(N)=O)C(=O)N1CCC[C@H]1C(=O)N[C@@H](C)C(=O)N[C@@H](CCC(N)=O)C(N)=O,KEAP1 Kelch domain,ITC,,concentration not given,,binding stoichiometry,1.08
O=C1Nc2ccccc2C1O (centres unmarked),Dehaloperoxidase B ferric,"product, HPLC",,"5 min, pH 7, 25 °C, enzyme 10 µM, with: indole and H2O2 500 µM each",,product formed,4.83 M
Nc1nc2c(ncn2[C@@H]2O[C@@H]3COP(=O)(O)O[C@H]4[C@@H](O)[C@H](n5cnc6c(=O)[nH]c(N)nc65)O[C@@H]4COP(=O)(O)O[C@H]3[C@H]2O)c(=O)[nH]1,"Cell cycle histidine kinase CckA, DHp-CA domains (Caulobacter vibrioides, UniProt Q9X688)",ITC,,"12 °C, with: AMPPNP 5 mM",,-TΔS,-6.9 kcal/mol
Cc1ccc(N(O)N=Nc2ccc(S(=O)(=O)Nc3onc(C)c3C)cc2)cc1,"α-glucosidase, rat intestine",enzyme activity,,"20 µg/mL, with: 4-nitrophenyl α-D-glucopyranoside",,inhibition,2.5 ± 0.041%
Cn1cc(-c2ccnc3ccccc23)c(-c2ccccn2)n1,"TGFBR1 (Homo sapiens, UniProt P36897)",,,,baseline: IC50 on target over Yck2,selectivity ratio,1
CCC1(O)CCCN(C(=O)c2ccc(-c3ccc(F)c(NC(=O)CCl)c3)cc2)C1 (centres unmarked),"DNA dC->dU-editing enzyme APOBEC-3B, C-terminal domain (Homo sapiens, UniProt Q9UH17)","covalent adduct, intact protein MS",,"3 h, 1-fold, 25 µM",,unmodified protein,60% and 37%
CN(O)N=Nc1ccc(S(=O)(=O)Nc2nccs2)cc1,"α-glucosidase, rat intestine",enzyme activity,,"180 µg/mL, with: 4-nitrophenyl α-D-glucopyranoside",,inhibition,40 ± 0.29%
Cc1ccc(S(=O)(=O)Nc2ccc(C)cc2NS(=O)(=O)c2cccc(C(F)(F)F)c2)cc1,"Protein lin-28 homolog A (Mus musculus, UniProt Q8K3Y3)",,,,,Hill slope,-0.8
COc1cc(C(=O)NS(=O)(=O)c2ccccc2C)ccc1Cc1cn(C)c2ccc(NC(=O)OC3CCCC3)cc12,"LRRC8A/LRRC8C (Homo sapiens, UniProt Q8IWT6+Q8TDW0, M48D/T48D)",whole-cell patch clamp,HCT116 LRRC8-/- transfected,at +100 mV,,Hill coefficient,1.23
Nc1ncnc2c1ncn2[C@@H]1O[C@H](C[C@@H](N)CC[C@H](N)C(=O)O)[C@@H](O)[C@H]1O,"O-methyltransferase (Sorghum bicolor, UniProt A0A1B6PFV1)",ITC,,"concentration not given, with: PTR+",,binding stoichiometry,0.98 ± 0.012
Nc1ncnc2c1ncn2[C@@H]1O[C@H](COP(=O)(O)OP(=O)(O)OP(=O)(O)O)[C@@H](O)[C@H]1O,"P2X purinoceptor 2 (P2rx2, Rattus norvegicus, UniProt P49653, K308A/K69A)",agonist,cells expressing WT-K308A-K69A concatemer,,,Hill coefficient,1.5 ± 0.2
CCN(O)N=Nc1ccc(S(=O)(=O)Nc2cc(C)on2)cc1,"α-glucosidase, rat intestine",enzyme activity,,"60 µg/mL, with: 4-nitrophenyl α-D-glucopyranoside",,inhibition,37.5 ± 1.25%
NC(=O)NOCCCCCCCCCCCCCCCC[P+](c1ccccc1)(c1ccccc1)c1ccccc1.O=C([O-])C(F)(F)F,MT-CYB/UQCRFS1,"complex III-dependent respiration, Seahorse XF96",HCT-116,"1 µM, 24 h",baseline: control,oxygen consumption rate,64.7%
CCCC(C)N1CCC(N(Cc2ccccc2NC(=O)CCl)C(=O)Nc2cccc(C(F)(F)F)c2)CC1 (centres unmarked),"DCN1-like protein 1 (Homo sapiens, UniProt Q96GG9)","covalent binder, LC-TOF mass spectrometry",,"60 µM, overnight, 4 °C, with: DCN1-like protein 1 30 µM",,covalent adduct formation,10%
COc1cc(-c2cncc3c2CN(C)Cc2cc(N4CCNCC4)ccc2-3)cc(OC)c1OC,"VRK2 (Homo sapiens, UniProt Q86Y07)",kinase activity,,"1 µM, human enzyme, with: ATP 10 µM",baseline: DMSO control,remaining activity,101%
Nc1ncnc2c1ncn2[C@@H]1O[C@H](CO[P@](=O)(O)O[P@](=O)(O)O[P@@](=O)(O)S)[C@@H](O)[C@H]1O,"GUK1 (Homo sapiens, UniProt Q16774)","binding, isothermal titration calorimetry",,"molar ratio 3.736, fitted curve",,ΔH,-0.175 kcal/mol
[H]/N=C(/N)NCC(=O)O,"SLC6A6 (Homo sapiens, UniProt P31641, L306A)","binding, microscale thermophoresis",,"1.95 µM, room temperature, with: 50 nM labelled protein",higher = more binding,normalised MST signal,0.0228
CC[C@@H]1[C@H](F)C(=O)N[C@@H]1COc1nccc2cc(C(N)=O)c(OC)cc12,"MLKL (Homo sapiens, UniProt Q8NB16)","ATP-site probe binding, ActivX profiling",THP-1 cell lysate,"0.01 mM, Lys1 site",,inhibition,-3.7%

# Excerpt of the above:
SMILES,target,assay,system,conditions,scale,endpoint,result
Nc1ncnc2c1ncn2[C@@H]1O[C@H](COP(=O)(O)OP(=O)(O)OP(=O)(O)O)[C@@H](O)[C@H]1O,"P2X purinoceptor 2 (P2rx2, Rattus norvegicus, UniProt P49653, K308A/K69A)",agonist,cells expressing WT-K308A-K69A concatemer,,,Hill coefficient,1.5 ± 0.2
CCN(O)N=Nc1ccc(S(=O)(=O)Nc2cc(C)on2)cc1,"α-glucosidase, rat intestine",enzyme activity,,"60 µg/mL, with: 4-nitrophenyl α-D-glucopyranoside",,inhibition,37.5 ± 1.25%
NC(=O)NOCCCCCCCCCCCCCCCC[P+](c1ccccc1)(c1ccccc1)c1ccccc1.O=C([O-])C(F)(F)F,MT-CYB/UQCRFS1,"complex III-dependent respiration, Seahorse XF96",HCT-116,"1 µM, 24 h",baseline: control,oxygen consumption rate,64.7%
